# Results from different studies.
Structure (SMILES),method,species,sample,route,dose,setting,AUC(0-t)
CCNC(=O)[C@@H]1CCCN1C(=O)[C@H](CCCNC(=N)N)NC(=O)[C@H](CC(C)C)NC(=O)[C@@H](CC(C)C)NC(=O)[C@H](Cc1ccc(O)cc1)NC(=O)[C@H](CO)NC(=O)[C@H](Cc1c[nH]c2ccccc12)NC(=O)[C@H](Cc1c[nH]cn1)NC(=O)[C@@H]1CCC(=O)N1,,male Sprague-Dawley rat,plasma,subcutaneous,12.5 mg/kg,single dose,9730 ng·h/mL
Nc1nc(Cl)nc2c1ncn2Cc1cc(OCC(F)F)cc(OC(F)F)c1,,Sprague-Dawley rat,plasma,intravenous,2.5 mg/kg,,10100 ng·h/mL
COCCCN1CCc2c(Cc3ccc(Cl)cc3)[nH]c3c(OC(F)F)ccc(c23)C1=O,,male Sprague-Dawley rat,blood,intravenous,2.5 mg/kg,,1120 ng·h/mL
CC1(C)CC[C@]2(C(=O)O[C@@H]3O[C@H](CO[C@@H]4O[C@H](CO)[C@@H](O)[C@H](O)[C@H]4O)[C@@H](O)[C@H](O)[C@H]3O)CC[C@]3(C)C(=CC[C@@H]4[C@@]5(C)CC[C@H](O[C@@H]6OC[C@H](O)[C@H](O)[C@H]6O)[C@@](C)(CO)[C@@H]5CC[C@]43C)[C@@H]2C1,,Sprague-Dawley rat,plasma,oral,150 mg/kg,,3890 ng·h/mL
Cc1ccc(OCC(=O)N(Cc2cccs2)c2ccn[nH]2)cc1,,male Sprague-Dawley rat,plasma,oral,100 mg/kg,single dose,50.1 ng·h/mL
Cn1cc(-c2cc(N3CCCS3(=O)=O)ccc2N[C@H]2CC[C@H](C)CC2)c2cc[nH]c2c1=O,,Sprague-Dawley rat,plasma,intravenous,1 mg/kg,,255 ng·h/mL
COc1cc(NC(C)=O)c2c(c1O)-c1c(OC)c(OC)cc3c1C(C2)N(C)CC3 (stereo not drawn),HPLC,male Wistar rat,plasma,intravenous,100 mg/kg,,36200 ng·h/mL
CSCOC1C(=O)C2(C)C(OCSC)CC3OCC3(OC(C)=O)C2C(OC(=O)c2ccccc2)C2(O)CC(OC(=O)C(O)C(C=C(C)C)NC(=O)OC(C)(C)C)C(C)=C1C2(C)C (stereo not drawn),,male Sprague-Dawley rat,plasma,intravenous,1 mg/kg,,149 ng·h/mL
COc1ccc2c(c1OCc1ccccc1)C[C@@H](C(=O)O)N(c1nc3ccc(F)cc3o1)C2,,male Sprague-Dawley rat,plasma,oral,10 mg/kg,,29400 ng·h/mL
CC12CC3CC(C)(C1)CC(NC(=O)Nc1ccc(C(=O)N4CCCC(C(N)=O)C4)cc1)(C3)C2 (stereo not drawn),,Sprague-Dawley rat,plasma,oral,10 mg/kg,,0.31 µM·h
N#Cc1cnc2cc(OCC3CCNCC3)c(F)cc2c1Nc1cc(F)c(OCc2cccc(Cl)n2)cc1Cl,,male Sprague-Dawley rat,plasma,oral,100 mg/kg,,2720 ng·h/mL
O=C(N[C@@H](CC1CCCCC1)C(=O)N[C@@H](C[C@H]1CCNC1=O)C(=O)C(=O)NC1CC1)OCc1cccc(Cl)c1,,female Sprague-Dawley rat,plasma,intravenous,10 mg/kg,single dose,20500 ng·h/mL
COc1ccc(COc2c(OC)ccc3c2C[C@@H](C(=O)O)N(c2nc4ccc(F)cc4o2)C3)cc1,,male Sprague-Dawley rat,plasma,oral,10 mg/kg,,6930 ng·h/mL
"CNC(=O)N[C@]1(C)CCC[C@@]2(C)C3CC[C@@]4(C)C[C@]3(CCC21)CC4=O (single isomer, unassigned)",,male Sprague-Dawley rat,plasma,intravenous,2 mg/kg,,1090 ng·h/mL
Cc1cc(/C=C2\CN(C(C)C)C/C(=C\c3cc(C)c(O)c(C)c3)C2=O)cc(C)c1O,,female Sprague-Dawley rat,plasma,intravenous,20 mg/kg,,1340 ng·h/mL
Cn1cc(-c2cc(N3CCCCS3(=O)=O)ccc2N[C@H]2CC[C@H](C)CC2)c2cc[nH]c2c1=O (stereo in doubt),,Sprague-Dawley rat,plasma,intravenous,1 mg/kg,,300 ng·h/mL
COC(=O)c1ccc2c(c1)NC(=O)/C2=C(\Nc1ccc2c(c1)CCN2C(=O)CN1CCOCC1)c1ccccc1,,Sprague-Dawley rat,plasma,oral,10 mg/kg,,6410 ng·h/mL
CC12CC3CC(C)(C1)CC(NC(=O)Nc1ccc(C(=O)N4CCC[C@H](C(N)=O)C4)cc1F)(C3)C2,,Sprague-Dawley rat,plasma,intravenous,10 mg/kg,,3.9 µM·h

# Some of these lines once more:
Structure (SMILES),method,species,sample,route,dose,setting,AUC(0-t)
COCCCN1CCc2c(Cc3ccc(Cl)cc3)[nH]c3c(OC(F)F)ccc(c23)C1=O,,male Sprague-Dawley rat,blood,intravenous,2.5 mg/kg,,1120 ng·h/mL
CC1(C)CC[C@]2(C(=O)O[C@@H]3O[C@H](CO[C@@H]4O[C@H](CO)[C@@H](O)[C@H](O)[C@H]4O)[C@@H](O)[C@H](O)[C@H]3O)CC[C@]3(C)C(=CC[C@@H]4[C@@]5(C)CC[C@H](O[C@@H]6OC[C@H](O)[C@H](O)[C@H]6O)[C@@](C)(CO)[C@@H]5CC[C@]43C)[C@@H]2C1,,Sprague-Dawley rat,plasma,oral,150 mg/kg,,3890 ng·h/mL
